Measurements gathered from unrelated publications.
A part holds a random share of what one study measured. Substitutions count along the parent as printed.

Series 1
Target: UDP-N-acetylglucosamine--peptide N-acetylglucosaminyltransferase 110 kDa subunit (OGT, Homo sapiens, UniProt O15294)
Effect on: binding
Technique: phage display NGS
Molecule type: peptide
Tested at: concentration not given
Reference: input library
Endpoint: enrichment fold change
Target sequence (O15294 1-1046): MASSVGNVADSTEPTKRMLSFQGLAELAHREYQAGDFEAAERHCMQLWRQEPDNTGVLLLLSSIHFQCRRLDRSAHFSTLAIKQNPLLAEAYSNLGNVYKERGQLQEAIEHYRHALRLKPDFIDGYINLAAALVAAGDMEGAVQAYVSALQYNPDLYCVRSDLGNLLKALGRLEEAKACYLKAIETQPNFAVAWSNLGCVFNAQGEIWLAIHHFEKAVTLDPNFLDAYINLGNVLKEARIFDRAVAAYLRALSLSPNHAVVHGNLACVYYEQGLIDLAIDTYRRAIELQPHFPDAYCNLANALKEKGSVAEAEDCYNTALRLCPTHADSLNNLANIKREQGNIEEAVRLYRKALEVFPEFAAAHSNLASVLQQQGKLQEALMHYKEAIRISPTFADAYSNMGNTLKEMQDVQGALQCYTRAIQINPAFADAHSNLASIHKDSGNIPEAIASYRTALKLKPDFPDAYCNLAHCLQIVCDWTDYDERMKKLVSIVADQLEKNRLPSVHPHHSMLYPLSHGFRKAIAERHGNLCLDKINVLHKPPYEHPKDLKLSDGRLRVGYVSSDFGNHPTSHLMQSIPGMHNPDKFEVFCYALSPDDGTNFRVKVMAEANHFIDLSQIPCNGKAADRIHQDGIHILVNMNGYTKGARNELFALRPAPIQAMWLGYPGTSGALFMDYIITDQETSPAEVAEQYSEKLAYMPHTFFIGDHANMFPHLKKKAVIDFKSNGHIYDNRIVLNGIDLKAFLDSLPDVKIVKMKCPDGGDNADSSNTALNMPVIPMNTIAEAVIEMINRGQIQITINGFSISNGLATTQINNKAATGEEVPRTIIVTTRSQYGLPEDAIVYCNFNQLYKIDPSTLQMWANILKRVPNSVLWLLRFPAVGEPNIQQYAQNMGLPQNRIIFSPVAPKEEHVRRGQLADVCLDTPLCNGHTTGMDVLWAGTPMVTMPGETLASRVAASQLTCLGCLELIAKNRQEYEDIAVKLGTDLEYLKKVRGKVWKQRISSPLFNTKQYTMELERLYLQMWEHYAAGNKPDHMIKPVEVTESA
HGIMQEDHGGTHHHY: 3.08
TAPFYPPAYQI: 1.02
HQMHAHQLHRPSTKF: 13.8
HVTSPMQLTNWHFHA: 2.57
QQQYRDYNPKYIIHY: 9.11
HPNPPKDHWFRTHH: 2.47
WMPVNYNGKHHSHTV: 59.3
HVEHVMHRSQAHDTH: 4.25

Series 2
Target: tungstate, free oxyanion
Technique: microfluidic competitive inhibition
Sample: in vitro, cell-free expressed
Tested at: not given
Notes: derived from inhibition constants, unchanged parent 2230 nM
Direction: lower = stronger binding
Endpoint: oxyanion analog dissociation constant
Starting sequence: PafA, mature enzyme, eGFP fusion (Elizabethkingia meningoseptica, UniProt Q9KJX5); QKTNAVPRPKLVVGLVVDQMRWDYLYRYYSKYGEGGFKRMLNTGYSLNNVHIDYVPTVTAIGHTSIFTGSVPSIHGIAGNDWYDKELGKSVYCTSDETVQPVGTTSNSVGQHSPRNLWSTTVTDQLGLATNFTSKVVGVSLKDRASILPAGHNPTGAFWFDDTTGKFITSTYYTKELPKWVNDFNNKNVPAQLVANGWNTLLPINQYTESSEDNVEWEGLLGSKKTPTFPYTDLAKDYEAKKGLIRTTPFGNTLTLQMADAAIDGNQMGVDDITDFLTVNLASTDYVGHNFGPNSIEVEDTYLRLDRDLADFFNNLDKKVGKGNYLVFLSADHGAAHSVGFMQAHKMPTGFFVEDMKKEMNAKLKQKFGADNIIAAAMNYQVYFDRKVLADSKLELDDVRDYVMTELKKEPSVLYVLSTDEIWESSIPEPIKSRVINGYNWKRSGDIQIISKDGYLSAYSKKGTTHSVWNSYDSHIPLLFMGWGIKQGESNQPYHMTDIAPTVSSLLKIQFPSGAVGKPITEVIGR
N266V: 2290 nM
D473V: 1190 nM
V516G: 1950 nM
I476G: 1730 nM
S418G: 2200 nM
N294G: 2130 nM
V298A: 2370 nM
Y415G: 1010 nM

Series 3
Target: CCNE1, cyclin fold, Cln2 fusion (human)
Technique: yeast growth competition, sequencing
Sample: yeast
Notes: strong parent motif
Reference: not given
Direction: higher = stronger binding
Endpoint: normalised enrichment score
Starting sequence: viral docking peptide; KGVKRKLFAEDSS; partner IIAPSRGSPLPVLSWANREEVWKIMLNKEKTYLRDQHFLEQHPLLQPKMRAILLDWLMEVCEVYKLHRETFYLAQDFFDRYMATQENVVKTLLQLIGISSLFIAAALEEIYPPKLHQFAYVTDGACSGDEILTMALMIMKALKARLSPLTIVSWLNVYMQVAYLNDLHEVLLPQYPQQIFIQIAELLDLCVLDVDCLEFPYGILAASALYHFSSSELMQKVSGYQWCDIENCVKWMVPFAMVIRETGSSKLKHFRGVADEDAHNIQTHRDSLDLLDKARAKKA
G2M: 6.92
D11R: 6.24
F8K: 0.311
K4T: 5.47
K6V: 7.27
G2A: 7.13
G2D: 7.45
K6T: 6.41

Further values, each from its own experiment
CN(C)CCC(c1ccccc1)c1ccccn1 (stereo not shown)  GFP-positive cells (HEK-293T; pseudovirus infection, FDA-approved drug library counter-screen; VSV pseudotyped with VSV-G; 10 µM, 16 h; reference: vehicle-treated): 120%
